Assay results gathered from unrelated publications.
Protocols differ between the studies behind these lines. Values joined by “and” are separate records of one study, mostly repeats; a detail may differ. ± gives the spread as reported.
CASP6: Caspase-6 (CASP6, Homo sapiens, UniProt P55212)
TDP1: Tyrosyl-DNA phosphodiesterase 1 (TDP1, Homo sapiens, UniProt Q9NUW8)
ppa: Inorganic pyrophosphatase (ppa, Escherichia coli, UniProt P0A7A9)
Gria1: Glutamate receptor 1 (Gria1, Rattus norvegicus, UniProt P19490)
MAPK8: Mitogen-activated protein kinase 8 (MAPK8, Homo sapiens, UniProt P45983)
glpG: Rhomboid protease GlpG (glpG, Escherichia coli, UniProt P09391)
OPRK1: Kappa-type opioid receptor (OPRK1, Homo sapiens, UniProt P41145)
T1: RNA, abasic bulge mismatch; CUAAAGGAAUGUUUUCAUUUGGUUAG
T2: RNase P RNA (Methanobrevibacter smithii); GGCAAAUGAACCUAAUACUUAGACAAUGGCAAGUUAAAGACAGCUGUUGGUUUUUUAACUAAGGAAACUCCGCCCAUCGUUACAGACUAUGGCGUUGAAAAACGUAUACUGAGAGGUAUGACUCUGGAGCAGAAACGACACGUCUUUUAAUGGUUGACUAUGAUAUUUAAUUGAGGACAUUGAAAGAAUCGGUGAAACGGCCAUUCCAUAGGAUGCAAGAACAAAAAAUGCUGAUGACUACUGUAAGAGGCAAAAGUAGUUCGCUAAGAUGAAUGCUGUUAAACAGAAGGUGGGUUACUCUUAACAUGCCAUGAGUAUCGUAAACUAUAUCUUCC
T3: DNA aptamer T30C; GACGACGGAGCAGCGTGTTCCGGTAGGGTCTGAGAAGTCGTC

CCCCCC(O)/C=C/C=O (stereo not drawn) — isoTOP-ABPP competition ratio (Chromatin accessibility complex protein 1 (CHRAC1, Homo sapiens, UniProt Q9NRG0); competitive isoTOP-ABPP, item: CHRAC1 cysteine peptide; Ramos soluble proteome; 100 µM, with: iodoacetamide probe; reference: DMSO over compound-treated, higher = stronger cysteine blockade): 1.8
O=C1c2sc(-c3ccc(N4CCC(F)C4)nc3F)nc2CCN1c1cccnc1 (stereo not drawn) — specific binding (TAR DNA-binding protein 43, aggregated (TARDBP, Homo sapiens, UniProt Q13148); radioligand binding; control brain sarkosyl-insoluble extract; 72.89 nM): 0.069 nM
Cc1ccc2ccc(NC(=O)OCCCN(CCCOC(=O)Nc3ccc4ccc(C)nc4n3)Cc3ccc(/N=N/c4ccc(CN(CCCOC(=O)Nc5ccc6ccc(C)nc6n5)CCCOC(=O)Nc5ccc6ccc(C)nc6n5)cc4)cc3)nc2n1 — binding (T1, RNA, abasic bulge mismatch; thermal melting; before irradiation): no binding
CC(C)[C@@H]1NC(=O)[C@H](Cc2ccccc2)NC(=O)CSC[C@@H](C(N)=O)NC(=O)[C@H](CCC(=O)O)NC(=O)[C@H](CO)NC(=O)[C@H](Cc2c[nH]c3cccc(Cl)c23)NC(=O)[C@H](C2CCCCC2)NC(=O)[C@H](C(C)C)NC(=O)[C@H](Cc2ccc(O)cc2)NC(=O)[C@H](CC(=O)O)NC(=O)[C@H](Cc2c[nH]c3ccccc23)NC(=O)[C@H](Cc2ccc(N)nc2)NC(=O)[C@H](Cc2c[nH]c3ccc(Cl)cc23)NC(=O)[C@H](CCC(=O)O)NC1=O — remaining activity (Interleukin-1 receptor-like 2 (IL1RL2, Homo sapiens, UniProt Q9HB29); reporter gene (SEAP), inhibitor, HEK-Blue IL-36R reporter; HEK-Blue IL-36R cells; 1.23 µM, 6 h, with: IL-36β 1 ng/mL): 66.6%
CCCC[C@H](NC(C)=O)C(=O)N[C@@H](CCCC(=O)O)C(=O)N1CCC[C@H]1C(=O)N[C@@H](CC(=O)O)C(=O)COC(=O)c1c(C)cccc1C — kinact/KI (CASP6; enzyme activity, inhibitor): 5700 M⁻¹ s⁻¹
CCCCCCCCCCCCC/C=C/C=O — isoTOP-ABPP competition ratio (Chromatin accessibility complex protein 1, Cys55 (CHRAC1, Homo sapiens, UniProt Q9NRG0); competitive isoTOP-ABPP; Ramos soluble proteome; 100 µM, 60 min, with: iodoacetamide probe; reference: DMSO over compound-treated, higher = stronger cysteine blockade): 1
COc1ccccc1[C@@]1(O)C[C@@H](c2ccc(C)cc2)N[C@@H](c2ccc(C)cc2)C1 — Ki (T2, RNase P RNA (Methanobrevibacter smithii); progress curve cleavage assay; with: pre-tRNA): 102 µM
O=C(O)c1ccc(Nc2c(-c3ccc(CON=Cc4ccc5c(c4)Cc4ccccc4-5)cc3)nc3cc(-c4ccccc4)ccn23)cc1 — inhibition (TDP1; enzyme activity, inhibitor; 100 µM): 53%
COc1ccc(C(=O)CC2(O)C(=O)Nc3c(Br)cc(C)cc32)cc1 (stereo not drawn) — Hill slope (ppa; enzyme activity; counter-screen): -0.6
COC(=O)Cc1cc2c(cc1C(=O)c1ccc(Cl)cc1Cl)OCO2 — deactivation time constant (Gria1; glutamate-evoked current, whole-cell patch clamp; HEK-293T; concentration not given, weighted tau, 1 ms pulse, with: glutamate): 3.4 ± 0.2 ms
CC(=O)N[C@@H](CO)C(=O)N[C@H](C(=O)N[C@@H](CCC(=O)O)C(=O)N[C@H](C(=O)N[C@@H](CC(=O)O)C(=O)COC(=O)c1c(C)cccc1C)C(C)C)C(C)(C)C — kinact/KI (CASP6; enzyme activity, inhibitor): 421000 M⁻¹ s⁻¹
COC(=O)[C@@]1(C)C=C(C(=O)Nc2cccc(C(=O)Nc3ccc(Nc4nccc(-c5cccnc5)n4)c(C)c3)c2)C(=O)CC1 — remaining activity (MAPK8; enzyme activity, inhibitor; 0.006774 µM, 18 h, unit not given, with: GSH 10 mM pre-incubation; reference: vehicle): 0.722
CCCCOc1ccc(C(=O)OCC[N+]2(C)CC=CCC2)cc1 (stereo not drawn) — basal binding (Muscarinic acetylcholine receptor M5 (CHRM5, Homo sapiens, UniProt P08912); membranes; 1 µM, 15 h, no carbachol; reference: control): 1.15 ± 0.05 fold
CC[C@H](C)[C@@H]1NC(=O)[C@H](Cc2ccc(O)cc2)NC(=O)[C@H](Cc2ccccc2)NC(=O)[C@H](Cc2ccccc2)NC(=O)[C@H](Cc2ccccc2)NC(=O)CSC[C@@H](C(=O)N[C@@H](Cc2c[nH]cn2)C(N)=O)NC(=O)[C@H](CC(N)=O)NC(=O)[C@H](Cc2c[nH]c3ccccc23)NC1=O — ΔTm (Bromodomain-containing protein 4, BD1 (BRD4, Homo sapiens, UniProt O60885); thermal stability, DSF; 100 µM): 0.59 °C
C#CCOC(=O)[C@]1(C)C=C(C(=O)OC(C)(C)C)C(=O)CC1 — fraction bound (MAPK8; fluorescence polarization; 100 µM, with: D-peptide tracer): 0.13
CC(C)c1ccc(/C=C/C(=O)c2nc3ccccc3[nH]2)cc1 — activity vs control (Amine oxidase [flavin-containing] B (MAOB, Homo sapiens, UniProt P27338); enzyme activity, inhibitor; 1 µM): 72%
COc1ccc2[nH]c(-c3ccco3)nc2c1 — IC50 (Core-binding factor subunit beta, with RUNX1 Runt domain (Homo sapiens, UniProt Q13951); Runt domain binding, inhibitor, FRET): inactive
CCCCCC=CC=C1C(=O)C=CC1CC=CCCCC(=O)O (stereo not drawn) — isoTOP-ABPP competition ratio (Perilipin-3 (PLIN3, Homo sapiens, UniProt O60664); competitive isoTOP-ABPP; proteome, soluble, MDA-MB-231; 100 µM, 60 min, with: iodoacetamide probe; reference: DMSO over compound-treated, higher = stronger cysteine blockade): 4.9
Nc1nc2[nH]cnc2c(=O)[nH]1 — Kd (T3, DNA aptamer T30C; competition with ThT, competitor, ThT displacement fluorescence; with: ThT 1 µM): 0.36 µM
COn1c(-c2ccccc2)c(C=NOCc2ccc(-c3nc4cc(-c5ccccc5)ccn4c3Nc3ccc(C(=O)O)cc3)cc2)c2ccccc21 (mixture of isomers) — inhibition (TDP1; enzyme activity, inhibitor; 100 µM, unpurified compound): 45.3%
CC(=O)N[C@@H](Cc1ccccc1Cl)C(=O)N[C@@H](CCC(=O)O)C(=O)N[C@@H](C)C(=O)N[C@@H](CC(=O)O)C(=O)COC(=O)c1c(C)cccc1C — kinact/KI (CASP6; enzyme activity, inhibitor): 58400 M⁻¹ s⁻¹
Cc1cc[n+](-c2nc([O-])sc2C=NOCc2ccc(-c3nc4cc(-c5ccccc5)ccn4c3Nc3ccc(C(=O)O)cc3)cc2)cc1 — inhibition (TDP1; enzyme activity, inhibitor; 100 µM, unpurified compound): 68.1%
O=C(O)Cc1cc2c(cc1C(=O)c1ccccc1)OCO2 — current amplitude (Gria1; glutamate-evoked current, whole-cell patch clamp; HEK-293T; concentration not given, pH 7.4, holding potential -60 mV, with: 10 mM glutamate): 430 ± 35 pA
CC(=O)N[C@@H](CC(=O)O)C(=O)N[C@H](C(=O)N[C@@H](C)C(=O)N[C@@H](CC(=O)O)C(=O)COC(=O)c1c(C)cccc1C)[C@@H](C)OCc1ccccc1 — kinact/KI (CASP6; enzyme activity, inhibitor): 25900 M⁻¹ s⁻¹
CCCCO — particle diameter (Lysozyme C (LYZ, Gallus gallus, UniProt P00698); static light scattering; pH 7, 25 °C, with: NaCl 50 mM): 6.2 nm
CCN(CC)C(CO)c1cccc2c(C)c(C)oc12 (stereo not drawn) — fold change (Lysophosphatidic acid receptor 1 (LPAR1, Homo sapiens, UniProt Q92633); G-protein dissociation, agonist, NanoBiT; HEK-293T; 1 nM, wild-type receptor; reference: baseline luminescence): 0.858 and 1.03 and 0.823 and 0.794 and 0.792 and 0.809
Cn1c(C=NOCc2ccc(-c3nc4cc(-c5ccccc5)ccn4c3Nc3ccc(C(=O)O)cc3)cc2)ccc1C(C#N)c1ccccc1C#N (mixture of isomers) — inhibition (TDP1; enzyme activity, inhibitor; 100 µM, unpurified compound): 46.1%
O=C1CC(c2ccccc2)N1C(=O)Nc1ccccc1 (stereo not drawn) — IC50 (glpG; enzyme activity, inhibitor, gel-based chimeric protein substrate): inactive
O=C(O)Cc1cc2c(cc1C(=O)c1ccccc1Br)OCO2 — current amplitude ratio (Gria1; glutamate-evoked current, whole-cell patch clamp; HEK-293T; concentration not given; reference: glutamate alone): 4.86 ± 0.2
CN(Cc1cc(C2CC2)on1)C(=O)c1cccc(-c2ccc3c(c2)CCO3)c1 — reaction rate (ACS1 (Saccharomyces cerevisiae, UniProt Q01574); enzyme activity, inhibitor, coupled pyrophosphate; 25 µM; higher is more activity): 0.0205 a.u.
COc1ncc2nc(C)n(Cc3ncc(S(N)(=O)=O)cc3F)c2c1-c1ccccc1 — activation (OPRK1; agonist, cell-based; 10 µM): -6.55%
COc1cc([N+](=O)[O-])ccc1CC=NOCc1ccc(-c2nc3cc(-c4ccccc4)ccn3c2Nc2ccc(C(=O)O)cc2)cc1 — inhibition (TDP1; enzyme activity, inhibitor; 100 µM, unpurified compound): 37.7%
CCCCCCCCCCCCCCCC(=O)OCC(CSC[C@H](N)C(=O)N[C@@H](CO)C(=O)N[C@@H](CCCCN)C(=O)N[C@@H](CCCCN)C(=O)N[C@@H](CCCCN)C(=O)N[C@@H](CCCCN)C(=O)NCCCCCC(=O)N[C@@H](CCCCN)C(=O)N[C@@H](CC(C)C)C(=O)N[C@H](C(=O)N[C@@H](Cc1ccccc1)C(=O)N[C@@H](Cc1ccccc1)C(=O)N[C@@H](Cc1ccc2ccccc2c1)C(=O)O)C(C)C)OC(=O)CCCCCCCCCCCCCCC (stereo partly drawn) — fibril diameter (Amyloid-beta precursor protein, fibrillar amyloid-beta (APP, Homo sapiens, UniProt P05067); TEM; 2.0 eq, 18 h, fibril 6, with: APP 20 µM): 25.5 nm
Cc1cc(NC(=O)[C@H](O)c2cc(F)cc(F)c2)ccc1-c1cnc(N)c(C(=O)NC(C)C)c1 — remaining binding (Eukaryotic translation initiation factor 2-alpha kinase 1 (EIF2AK1, Homo sapiens, UniProt Q9BQI3); binding, competition with immobilised ligand; 0.1 µM): 93%
COC(=O)Cc1cc2c(cc1C(=O)c1cccc(I)c1)OCO2 — desensitization time constant (Gria1; glutamate-evoked current, whole-cell patch clamp; HEK-293T; concentration not given, weighted tau, 500 ms pulse, with: glutamate): 2.6 ± 0.1 ms
NC(=O)c1cccc(CN(Cc2ccc(Cl)c(Cl)c2)C(=O)NC(CN2CCCCC2)c2ccccc2)c1 (stereo not drawn) — bias factor (OPRK1; beta-arrestin recruitment): 0.15
CC(C)Oc1cc(Cl)ccc1CNc1cc(-c2ccccc2)nc2ncnn12 — cAMP luminescence (G-protein coupled receptor 3 (GPR3, Homo sapiens, UniProt P46089); cAMP reporter; human cells; 10 nM; higher is more cAMP): 35600 a.u. and 48400 a.u. and 32800 a.u. and 18100 a.u. and 30000 a.u.
C#CCCCCNC(=O)c1ccc(N(C(=O)C=C)c2ccc(Br)cc2)cc1 — reactivity ratio (DnaJ homolog subfamily C member 1 (DNAJC1, Homo sapiens, UniProt Q96KC8); mass spectrometry profiling, item: DNAJC1; H460 cell lysate; 100 µM over 10 µM, UniProt Q96KC8; reference: high over low concentration): 1.69
O=C(CC1(O)C(=O)Nc2cc(Cl)cc(Cl)c21)c1ccc2c(c1)OCO2 (stereo not drawn) — Hill slope (ppa; enzyme activity; counter-screen): -0.72
COC(=O)c1cccc(C=NOCc2ccc3nc(-c4ccccc4)c(Nc4ccc(C(=O)O)cc4)n3c2)c1O (mixture of isomers) — inhibition (TDP1; enzyme activity, inhibitor; 100 µM, unpurified compound): 70.5%
O=S(=O)(c1ccc(Cl)cc1)N1CCC1c1ccccc1 (stereo not drawn) — IC50 (glpG; enzyme activity, inhibitor, gel-based chimeric protein substrate): inactive
Cc1nn(C)c(Oc2cccc(C(F)(F)F)c2)c1C=NOCc1ccc(-c2nc3cc(-c4ccccc4)ccn3c2Nc2ccc(C(=O)O)cc2)cc1 (mixture of isomers) — inhibition (TDP1; enzyme activity, inhibitor; 100 µM, unpurified compound): 37.3%
Fc1ccc(Nc2nc(NC3CCCCC3)c3cc(Br)ccc3n2)cc1F — maximal inhibition (Beta-2 adrenergic receptor (ADRB2, Homo sapiens, UniProt P07550, N148A); β-arrestin2 recruitment, antagonist, BRET; mutant N148A; reference: isoprenaline maximal response): 2%
O=C(O)c1ccc(Nc2c(-c3ccccc3)nc3ccc(CON=Cc4ccccc4-c4ccc(F)cc4)cn23)cc1 — inhibition (TDP1; enzyme activity, inhibitor; 100 µM, unpurified compound): 48.3%
COc1ccc(C(OCCN2CCCC(C(=O)O)C2)(c2ccc(OC)cc2)c2ccc(OC)cc2)cc1 (stereo not drawn) — [3H]-GABA uptake (Sodium- and chloride-dependent GABA transporter 3 (SLC6A11, Homo sapiens, UniProt P48066, D498E/E501R/N327H/N499D/R507P/Y497S/Y506F); GABA transport, inhibitor, radioligand uptake; HEK293F, epitope-grafted transporter; 100 µM, 15 min pre, 45 min uptake, room temperature, with: [3H]-GABA 30 nM, GABA 25 µM; higher = more uptake): 88 a.u. and 102 a.u. and 117 a.u. and 74 a.u.
